Published values of several laboratories.
Numbers after ± are the reported error.
Chain of UniProt Q9UIA9 (whole entry, looked up): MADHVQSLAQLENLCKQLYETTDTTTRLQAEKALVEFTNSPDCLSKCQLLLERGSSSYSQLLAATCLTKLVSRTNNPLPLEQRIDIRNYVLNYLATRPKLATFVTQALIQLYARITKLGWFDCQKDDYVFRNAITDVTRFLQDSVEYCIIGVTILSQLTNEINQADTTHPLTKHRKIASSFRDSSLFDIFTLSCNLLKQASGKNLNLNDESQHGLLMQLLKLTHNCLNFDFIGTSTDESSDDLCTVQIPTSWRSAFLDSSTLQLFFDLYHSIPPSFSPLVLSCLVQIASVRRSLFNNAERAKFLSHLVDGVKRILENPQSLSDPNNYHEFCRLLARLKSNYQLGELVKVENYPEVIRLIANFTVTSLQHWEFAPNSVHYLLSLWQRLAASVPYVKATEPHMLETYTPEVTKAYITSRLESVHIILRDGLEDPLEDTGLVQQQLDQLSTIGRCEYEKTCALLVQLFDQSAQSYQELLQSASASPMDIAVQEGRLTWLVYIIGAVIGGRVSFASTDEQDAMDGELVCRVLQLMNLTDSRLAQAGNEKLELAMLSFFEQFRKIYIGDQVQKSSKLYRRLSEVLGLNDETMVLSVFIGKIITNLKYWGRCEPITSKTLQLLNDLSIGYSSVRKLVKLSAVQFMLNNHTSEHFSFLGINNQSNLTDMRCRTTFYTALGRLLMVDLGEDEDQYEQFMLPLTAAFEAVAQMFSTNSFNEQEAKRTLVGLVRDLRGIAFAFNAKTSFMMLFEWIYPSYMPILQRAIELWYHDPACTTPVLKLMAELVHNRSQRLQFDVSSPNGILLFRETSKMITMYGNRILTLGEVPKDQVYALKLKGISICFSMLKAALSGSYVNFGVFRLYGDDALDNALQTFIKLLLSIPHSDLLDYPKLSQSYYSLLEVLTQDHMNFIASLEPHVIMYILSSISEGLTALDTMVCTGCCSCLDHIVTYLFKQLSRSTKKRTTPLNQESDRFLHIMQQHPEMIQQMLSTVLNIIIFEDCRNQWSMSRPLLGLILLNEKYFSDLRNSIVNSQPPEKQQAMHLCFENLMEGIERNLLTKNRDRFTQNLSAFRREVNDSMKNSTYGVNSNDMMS
Chain of UniProt Q9UQM7 (whole entry, looked up): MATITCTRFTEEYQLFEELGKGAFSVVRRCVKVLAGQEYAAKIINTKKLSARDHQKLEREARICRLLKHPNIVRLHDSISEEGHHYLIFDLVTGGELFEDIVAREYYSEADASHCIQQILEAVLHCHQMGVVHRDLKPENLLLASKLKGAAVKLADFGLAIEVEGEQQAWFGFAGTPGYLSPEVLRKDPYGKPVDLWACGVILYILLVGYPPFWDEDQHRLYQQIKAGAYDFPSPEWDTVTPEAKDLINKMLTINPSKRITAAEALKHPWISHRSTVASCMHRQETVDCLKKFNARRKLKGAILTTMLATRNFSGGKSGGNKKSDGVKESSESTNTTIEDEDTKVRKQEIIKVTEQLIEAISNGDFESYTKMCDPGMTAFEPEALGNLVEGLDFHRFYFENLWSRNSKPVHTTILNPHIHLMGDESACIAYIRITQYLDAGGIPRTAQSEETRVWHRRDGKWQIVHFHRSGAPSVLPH

With `[Cl-].[Cl-].[Pt+2].[Ru+2].c1ccc(-c2nccnc2-c2ccccn2)nc1.c1cnc2c(c1)ccc1cccnc12.c1cnc2c(c1)ccc1cccnc12` the hatching rate was 63.3 ± 4.2% (Danio rerio; embryos; 15 µM, 96 h).
The selectivity index of `O[C@H](CNCCN1CCN(C(c2ccccc2)c2ccccc2)CC1)c1cc(Cl)cc2c1-c1ccc(Cl)cc1C2` is reported as 615 (Plasmodium falciparum; W2; reference: HepG2 CC50 over IC50).
Under “revertant colonies per plate”, `COc1cccc(-c2n[nH]c(SCc3ccccn3)n2)c1OC` is recorded as 21 (Salmonella typhimurium; Ames test, preincubation; TA98; 0.50 mg/plate, without S9).
`C[C@H]1CN(c2n[nH]c3nc(N[C@H]4CC[C@H](NS(=O)(=O)CCC(F)(F)F)CC4)ncc23)CCO1` gave a remaining binding of 1.11 (Exportin-7 (Homo sapiens, UniProt Q9UIA9); Kinobeads competition, measured: XPO7; 0.16 µM, unit not given; reference: vehicle).
For `COc1cc(Nc2ncc(F)c(Nc3ccc4c(n3)NC(=O)C(C)(C)O4)n2)cc(OC)c1OC`, the IC50 was greater than 10 µM (TGF-beta receptor).
`[Cl-].[Cl-].[Pt+2].[Ru+2].c1ccc(-c2nc3cc4ccccc4cc3nc2-c2ccccn2)nc1.c1cnc2c(c1)ccc1cccnc12.c1cnc2c(c1)ccc1cccnc12` gave a survival rate of 63.3 ± 3.8% (Danio rerio; embryos; 75 µM, 96 h).
`COc1ccc(N2C(=O)N(c3c(C)cccc3Cl)Cc3cnc(Nc4ccc(C5CCN(C)CC5)cc4OC)nc32)nc1` gave an inhibition of 3.37% (CAMK2A (Homo sapiens, UniProt Q9UQM7); kinase activity; 0.5 µM).
`Fc1ccc(C2=CCNCC2)cc1` has an induction factor of 1.4 (Salmonella typhimurium; genotoxicity, SOS/umu test; TA1535/pSK1002; 1 mg/mL, 4 h, without S9, full range).
`CO[C@H]1C[C@@H]2CC[C@@H](C)[C@@](O)(O2)C(=O)C(=O)N2CCCC[C@H]2C(=O)O[C@H]([C@H](C)C[C@@H]2CC[C@@H](OC(=O)NCCOCCOCCOCCOCCOCCOCCOCCOCCC(=O)N3CCc4cc(Cn5nc(-c6ccc7oc(N)nc7c6)c6c(N)ncnc65)ccc4C3)[C@H](OC)C2)C[C@@H](O)[C@H](C)/C=C(\C)[C@@H](O)[C@@H](OC)C(=O)[C@H](C)C[C@H](C)/C=C/C=C/C=C/1C` gave a mucositis incidence of 25% (patients with advanced solid tumours; intravenous, 12 mg weekly, grade 3 or higher).
Under “revertants per plate”, `CC(=O)N1CCC(C(=O)N2CCN3C(=O)c4cc(-c5ccccc5)ccc4NC(=O)C3C2)CC1` (stereo not drawn) is recorded as 31 (Escherichia coli; WP2 uvrA; 15.8 µg/plate, with rat liver S9).
With `CC[C@H](C)[C@H](NC(=O)[C@H](Cc1ccccc1)NC(=O)[C@H](CCC(=O)O)NC(=O)[C@H](CCCNC(=N)N)NC(=O)[C@H](C)NC(=O)[C@H](C)NC(=O)[C@H](CCC(N)=O)NC(=O)[C@H](CCC(=O)O)NC(=O)[C@H](CCC(=O)O)NC(=O)[C@H](CC(C)C)NC(=O)[C@H](Cc1ccc(O)cc1)NC(=O)[C@H](CO)NC(=O)[C@H](CO)NC(=O)[C@@H](NC(=O)[C@H](CC(=O)O)NC(=O)[C@H](CO)NC(=O)[C@@H](NC(=O)[C@H](Cc1ccccc1)NC(=O)[C@@H](NC(=O)CNC(=O)[C@H](CCC(=O)O)NC(=O)[C@H](C)NC(=O)CCc1c[nH]cn1)[C@@H](C)O)[C@@H](C)O)C(C)C)C(=O)N[C@@H](C)C(=O)N[C@@H](Cc1c[nH]c2ccccc12)C(=O)N[C@@H](CC(C)C)C(=O)N[C@H](C(=O)N[C@@H](CCCNC(=N)N)C(=O)NCC(=O)N[C@@H](CCCNC(=N)N)C(=O)N[C@@H](CCCCNC(=O)COCCOCCNC(=O)COCCOCCNC(=O)CC[C@H](NC(=O)CCCCCCCCCCCCCCCCC(=O)O)C(=O)O)C(=O)NCC(=O)NCC(=O)N[C@@H](CO)C(=O)N[C@@H](CCCCNc1c(NCCCCCN(O)C(=O)CCC(=O)NCCCCCN(O)C(=O)CCC(=O)NCCCCCN(O)C(C)=O)c(=O)c1=O)C(=O)O)C(C)C` [zirconium-89 labelled] the tissue uptake was 0.03 %ID/g (ex vivo gamma counting; rat, duodenum content; subcutaneous, 3 nmol/kg, 72 h, added: [89Zr]-labelled peptide).
`O=[N+]([O-])c1ccc(NC2CCNCC2)c(C(F)(F)F)c1` has an induction factor of 0.7 (Salmonella typhimurium; genotoxicity, SOS/umu test; TA1535/pSK1002; 0.004 mg/mL, 4 h, with S9, full range).
`Cc1cc(C(=O)NC(C)(C)COc2cccc3c2C(N)=NS(=O)(=O)N3)cc(C)n1` has a revertant ratio of 0.9 (Escherichia coli; Ames test, initial; WP2 uvrA; 15.0 µg/plate, added: rat liver S9; reference: solvent control).
With `OC(CCN1CC=C(c2ccc(F)cc2)CC1)c1ccc(F)c2ccccc12` (stereo not drawn) the survival was 159% (Salmonella typhimurium; SOS/umu test; TA1535/pSK1002; 0.25 mg/mL, 4 h, without S9, lower range).
With `O=C(NC(=O)c1ccccc1Cl)Nc1ccc(Cl)cc1` the mortality was 85.4 ± 2.3% (Ostrinia furnacalis; leaf dipping; 500 mg/L, 96 h).

Repeated from above:
`Cc1cc(C(=O)NC(C)(C)COc2cccc3c2C(N)=NS(=O)(=O)N3)cc(C)n1` has a revertant ratio of 0.9 (Escherichia coli; Ames test, initial; WP2 uvrA; 15.0 µg/plate, added: rat liver S9; reference: solvent control).
